Results from different studies.
Numbered parts are unrelated; each lists some results of a single study.

Set 1
Target: RNA binding protein fox-1 homolog 2, RRM domain, GST-SBP tag (RBFOX2, Homo sapiens, UniProt O43251-10, residues 100-194)
Technique: RNA Bind-n-Seq
Form: RNA
Sample: in vitro
Tested at: 365 nM
Setting: natural RNA segment, single round, ends assumed
Reference: no-protein control
Reading: higher = stronger binding
All sequences stand within: GGGAGUUCUACAGUCCGACGAUC … UGGAAUUCUCGGGUGCCAA
Target sequence (chain): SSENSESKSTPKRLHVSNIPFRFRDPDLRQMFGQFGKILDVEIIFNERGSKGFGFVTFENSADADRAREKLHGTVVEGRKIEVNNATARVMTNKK
`CAAGAUGACCAAAUACUCUACCACACUAACCAAGGAGCCCUCCCUAGCCCUGCAGUUCCCACCUUUGAGGUUUUGUUAUGGUAAGUCCCCAAGUCCAGUACCUCUGGUAA`: “RBNS enrichment (R)” 0.675.
`CUUUGUUCUCACACCCCACUGCCCAACAGAUUCCUUUGGAUGCUGUCUGGAACAGGAAAGAGGUAUAGGUGCCUAUCCACUGCCACUCUGCACGACUGAAGGGCCAGGCG` — result for “RBNS enrichment (R)”: 1.18.
For `UGGAGUAGACCCCUGGCUGGUAAGGGCCAAGUCCCACCGGUUGCUUCUGGGAAGGGGUUUCUAACACUAGUCUGUGUGCUGUGGUUCCUGGGGUGCCCUCCACUGCCCUC`, “RBNS enrichment (R)” read 1.86.
For `UGACAGCGGUAGCAGCUACCUAUUCAAGACGCCUCACACAAAAUCUGCCUUAGAAAGUUAAUAUAUUUUAAAUUAUUUUAAAAGAAACUCAACAUCUUAUUCUUUGGCCU`, “RBNS enrichment (R)” read 0.413.
`GUAGUUUCUAUUUUAUAGAAUAUUUAGUCUGAGAAGUUAAAGAAACUAGACCUAGGAUCUCAAAAGUUUUAAAACUUUGACGUUUUCAUAUGUUUGUUUAUUAAUAGGAU` — result for “RBNS enrichment (R)”: 0.607.
Under “RBNS enrichment (R)”, `GUGAGAAUGCUGCAUCUUUCUACAUAUCUUCAUGAGAAUACUGAGAAUUGGAUUUUCCUUUUCAAAAUGCACUUUGCUUUUUUUGUAUGUUUUGUUAUGUUGAGAUGUUU` is recorded as 2.3.
For `AAUUAUUUUCUAAGCAAAAUAACACUUGUUUGUUUAUGGCCCAUGGAUCAUAGCUUCCUGUCCCCACCUAUUUUUGUAAAUAAAGUUUUAUGGGAACACAACCACAUCCA`, “RBNS enrichment (R)” read 0.242.
`UGAAAGAAAAUGGCUGGAGGUGUGCUUUGUGUGAAAGGUGAGCAAUAAAGUAUCUGUUAAGUUCUCUUUUGGUUUGAGUUUUAUUUUAGCUACUGAAUUAUUCUGGACUC`: “RBNS enrichment (R)” 0.772.

Set 2
Target: Ras GTPase-activating protein-binding protein 1, full length (G3BP1, Homo sapiens, UniProt Q13283)
Sequence of UniProt Q13283 (whole entry, looked up): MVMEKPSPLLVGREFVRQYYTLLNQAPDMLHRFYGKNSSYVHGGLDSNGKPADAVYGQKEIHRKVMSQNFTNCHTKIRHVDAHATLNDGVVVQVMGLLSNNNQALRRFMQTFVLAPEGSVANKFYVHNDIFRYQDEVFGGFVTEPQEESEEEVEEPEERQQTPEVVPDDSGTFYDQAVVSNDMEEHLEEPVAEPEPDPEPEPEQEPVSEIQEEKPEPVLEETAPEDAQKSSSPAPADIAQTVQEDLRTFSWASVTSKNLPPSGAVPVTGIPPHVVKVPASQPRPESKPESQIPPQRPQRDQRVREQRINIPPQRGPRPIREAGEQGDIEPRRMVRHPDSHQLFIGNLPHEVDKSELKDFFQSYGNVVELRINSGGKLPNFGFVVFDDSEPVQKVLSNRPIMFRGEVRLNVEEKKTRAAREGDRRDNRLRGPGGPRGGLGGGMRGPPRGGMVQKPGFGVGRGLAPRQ
Technique: RNA Bind-n-Seq
Form: RNA
Sample: in vitro
Tested at: 200 nM
Setting: whole 134-nt RNA, ends assumed
Added: 150 mM LiCl
Reference: input library
Reading: higher = stronger binding
All molecules: 7-deaza-guanosine replaces G
All sequences stand within: GGGAGUUCUACAGUCCGACGAUC … UGGAAUUCUCGGGUGUCAAGG
`UGGCCCUGGUGGCAUGCGGGGAGGAAGAGGUGGCCUCAUGGAUUGUGGUGGUCCCGGUGGAAUGUUCAGAGGUGGCCGUGGUGGAGACAG` gave a log2 enrichment of 1.04.
For `UAACUUUAGAGGAGGAUCUGAUGGAUAUGGCAGUGGACGUGGAUUUGGGGAUGGCUAUAAUGGGUAUGGAGGAGGACCUGCAGGUGGCAA`, the log2 enrichment was -0.139.
With `CCUCAAGUCCUGUGCUACACAUCGUAUGUACCGAAUCGGGAGGAGGGGAGGGAAAGUAUUAUGUUACGCCGUUCGGAUCUGCACUUCCAG` the log2 enrichment was 0.731.
With `GUCCUGUGCUACACAUCGUAUGUACCGAAUCGGGGAAAAGGGGAAAAGGGAAAAGGGGAAAGUAUUAUGUUACGCCGUUCGGAUCUGCAC` the log2 enrichment was 0.325.
`UCCUGUGCUACACAUCGUAUGUACCGAAUCGGGAAAAAGGGAAAAAGGGGAAAAAGGGGAAAGUAUUAUGUUACGCCGUUCGGAUCUGCA` has a log2 enrichment of -0.255.
`CCUGUGCUACACAUCGUAUGUACCGAAUCGGGGUUUUUGGGGUUUUUUUGGGGUUUGGGGAAAGUAUUAUGUUACGCCGUUCGGAUCUGC` has a log2 enrichment of 0.218.
`CCUGUGCUACACAUCGUAUGUACCGAAUCGGCCCCCCCGGGCCCCCCCGGGCCCCCCCGGGAAAGUAUUAUGUUACGCCGUUCGGAUCUG` has a log2 enrichment of -0.577.
`CCUCAAGUCCUGUGCUACACAUCGUAUGUACCGAAUCGGUUUGGUGGAAAGGAAAGUAUUAUGUUACGCCGUUCGGAUCUGCACUUCCAG` has a log2 enrichment of 0.0481.

Set 3
Organism: SARS-CoV-2
Read-out: cytopathic effect
Cell line: Vero E6
Tested at: 10 µM
`C[S+]([O-])CCCCN=C=S` (stereo not drawn) has an inhibition of -2.7%.
`COc1cc(N(C)C)cc(CN(C)CCc2ccc([N+](=O)[O-])cc2)c1O` gave an inhibition of 22.4%.
For `CC(C)(C)c1ccc(S(=O)(=O)/C=C/C#N)cc1`, the inhibition was -35.7%.
For `O=C(NC(=S)N1CCCc2ccccc21)c1ccccc1`, the inhibition was -3.2%.

Set 4
Target: Replicase polyprotein 1ab, polymerase (rep, Severe acute respiratory syndrome coronavirus 2, UniProt P0DTD1)
Read-out: enzyme activity
Action: inhibitor
Tested at: 20 µM
`CN(C)CCC(c1ccc(Cl)cc1)c1ccccn1` (stereo not drawn) gave an inhibition of -12.9%.
With `CC(C)C[C@@H](C(=O)N[C@H](C(=O)OC1CCCC1)c1ccccc1)[C@H](O)C(=O)NO` the inhibition was 4.88%.
For `Cc1c[nH]c(=O)n(CCCN2CCN(c3ccccc3OCC(F)(F)F)CC2)c1=O`, the inhibition was -4.8%.
For `COc1cc2ncnc(Sc3nnc(C)s3)c2cc1OC`, the inhibition was -5.6%.
The inhibition of `CC(C)(C)C(=O)NCCCC(=O)O` is reported as 5.82%.
With `COc1cc(N2CCC(N)CC2)ccc1Nc1ncc(Cl)c(-c2c[nH]c3ccccc23)n1` the inhibition was 25.8%.
With `COC(=O)c1ccccc1NC(=O)c1ccc(F)cc1` the inhibition was -4.62%.
With `CCOC(=O)c1c(C)n(C)c2ccc(O)cc12` the inhibition was -0.66%.
For `CCOc1nc2cccc(C(=O)OCc3oc(=O)oc3C)c2n1Cc1ccc(-c2ccccc2-c2noc(=O)[nH]2)cc1`, the inhibition was 7.15%.
With `Nc1nccc(/C=C/c2ccccc2)n1` the inhibition was -6.39%.
With `C[C@]12C/C(=C/O)C(=O)C[C@@H]1CC[C@@H]1[C@@H]2CC[C@@]2(C)[C@H]1CC[C@]2(C)O` the inhibition was -3.21%.
`O=C(O)Cc1nn(Cc2nc3cc(C(F)(F)F)ccc3s2)c(=O)c2ccccc12` has an inhibition of 0.79%.
`CCS(=O)(=O)N(Cc1cccnc1)c1cccc(-c2ccc(C#N)cc2)c1` gave an inhibition of 14.3%.
With `Cc1ccc(NCCCc2ccccc2)c(N)c1` the inhibition was -0.31%.
`O=C(O)Cc1ccc2c(c1)C(=O)c1ccccc1CO2` has an inhibition of 2.48%.
The inhibition of `CCOc1cc(CC(=O)N[C@@H](CC(C)C)c2ccccc2N2CCCCC2)ccc1C(=O)O` is reported as -6.73%.
`N#Cc1cc(CN2CCC(Nc3ncnc4sc(Cl)cc34)CC2)ccc1F` gave an inhibition of -6.66%.
The inhibition of `O=S(=O)(N[C@H]1CC[C@@](c2cc(F)ccc2F)(S(=O)(=O)c2ccc(Cl)cc2)CC1)C(F)(F)F` is reported as 3.07%.
With `[O-][S+](c1ccccc1)c1ccc2nnnn2n1` (stereo not drawn) the inhibition was 0.49%.
The inhibition of `OCCN(CCO)c1nc(N2CCCCC2)c2nc(N(CCO)CCO)nc(N3CCCCC3)c2n1` is reported as 7.86%.
The inhibition of `Cc1ccc(Cl)c(OCC(O)CNC(C)(C)C)c1` (stereo not drawn) is reported as 2.49%.
`Cn1cc(-c2ccncc2)c(-c2ccc(OCc3ccc4ccccc4n3)cc2)n1` gave an inhibition of 6.68%.
`Oc1ccc(O)cc1` gave an inhibition of -3.23%.
`CN(C)CCc1ccc(O)cc1` has an inhibition of 2.31%.
The inhibition of `c1cnc(NCc2ccc(CNc3ncccn3)cc2)nc1` is reported as -1.42%.

Set 5
Cell line: HEK-293T
Organism: VSV pseudotyped with SARS-CoV-2 spike
Tested at: 10 µM
Time: 16 h
`CN(C)CCOC(c1ccccc1)c1ccccc1` has a pseudovirus infection of 115%.
For `Clc1ccc(CO/N=C(\Cn2ccnc2)c2ccc(Cl)cc2Cl)c(Cl)c1`, the pseudovirus infection was 75%.
`CC(C)c1c(C(=O)Nc2ccccc2)c(-c2ccccc2)c(-c2ccc(F)cc2)n1CC[C@@H](O)C[C@@H](O)CC(=O)O` has a pseudovirus infection of 112%.
With `CN(C)C(=N)N=C(N)N` the pseudovirus infection was 71.1%.

Set 6
Target: Interferon regulatory factor 7, full length, phosphomimetic (IRF7, Homo sapiens, UniProt Q92985, residues 1-503, S471D/S472D/S475D/S476D/S477D/S483D/S484D/S487D)
Technique: protein-binding microarray
Form: double-stranded DNA, one strand shown
Sample: in vitro
Tested at: 2200 nM top
Setting: 60-bp whole probe
Added: salmon DNA 0.4 mg/ml
Reference: random background probes
Reading: higher = stronger binding
All sequences stand within: GCCTAGCAC … GTCTTGATTCGCTTGACGCTGCTG
Target sequence (chain): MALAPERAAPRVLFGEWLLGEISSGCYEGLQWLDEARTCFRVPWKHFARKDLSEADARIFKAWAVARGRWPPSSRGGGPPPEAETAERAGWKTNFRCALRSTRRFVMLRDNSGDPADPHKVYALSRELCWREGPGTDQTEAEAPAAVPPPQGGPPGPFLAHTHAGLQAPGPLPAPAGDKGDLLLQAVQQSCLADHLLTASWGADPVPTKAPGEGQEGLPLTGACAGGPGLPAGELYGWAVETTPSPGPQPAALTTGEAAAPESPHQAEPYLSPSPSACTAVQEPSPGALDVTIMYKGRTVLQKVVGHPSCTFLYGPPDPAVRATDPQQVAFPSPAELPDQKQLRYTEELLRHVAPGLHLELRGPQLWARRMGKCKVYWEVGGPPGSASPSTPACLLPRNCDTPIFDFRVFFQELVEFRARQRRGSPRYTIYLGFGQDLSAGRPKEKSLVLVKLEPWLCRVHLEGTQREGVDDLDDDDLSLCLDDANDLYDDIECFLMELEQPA
For `GACGGTATCCTTATCGTGACGTGCTAG`, “fitted relative affinity” read 0.7 z-score.
For `TTAGATTTCGGGTATCGATTGGTGCTA`, “fitted relative affinity” read 3.12 z-score.
`TCACCTCCAGGTTCTCTGACTGTGCTA`: “fitted relative affinity” 0.981 z-score.
For `TTAGGTATCGACTATCGGTGAGTGCTA`, “fitted relative affinity” read 0.0987 z-score.
`GACGGTATCCTTCTCCTGATGTGCTAG`: “fitted relative affinity” 1.06 z-score.
`GACGATATCGTGACTGGAGACGTGCTA`: “fitted relative affinity” -0.12 z-score.
For `TCATGTTTAAGAATGTTACTGTGCTAG`, “fitted relative affinity” read 0.559 z-score.
For `AGAGAGAGAGAGAGAGAGAGGTGCTAG`, “fitted relative affinity” read -1.19 z-score.

Excerpt of the above (set 4):
`O=C(O)Cc1ccc2c(c1)C(=O)c1ccccc1CO2` has an inhibition of 2.48%.
The inhibition of `CCOc1cc(CC(=O)N[C@@H](CC(C)C)c2ccccc2N2CCCCC2)ccc1C(=O)O` is reported as -6.73%.
`N#Cc1cc(CN2CCC(Nc3ncnc4sc(Cl)cc34)CC2)ccc1F` gave an inhibition of -6.66%.
The inhibition of `O=S(=O)(N[C@H]1CC[C@@](c2cc(F)ccc2F)(S(=O)(=O)c2ccc(Cl)cc2)CC1)C(F)(F)F` is reported as 3.07%.
With `[O-][S+](c1ccccc1)c1ccc2nnnn2n1` (stereo not drawn) the inhibition was 0.49%.
The inhibition of `OCCN(CCO)c1nc(N2CCCCC2)c2nc(N(CCO)CCO)nc(N3CCCCC3)c2n1` is reported as 7.86%.
The inhibition of `Cc1ccc(Cl)c(OCC(O)CNC(C)(C)C)c1` (stereo not drawn) is reported as 2.49%.
`Cn1cc(-c2ccncc2)c(-c2ccc(OCc3ccc4ccccc4n3)cc2)n1` gave an inhibition of 6.68%.
`Oc1ccc(O)cc1` gave an inhibition of -3.23%.
